Measured values collected from several papers.
Parts stem from different laboratories: compare values within a part only. Positions count from the first letter of the parent shown.

Series 1
Target: RING finger protein unkempt homolog, zinc fingers 1-6, SBP tag (UNK, Homo sapiens, UniProt Q9C0B0, residues 30-357)
Chain of UniProt Q9C0B0 (30-357, looked up): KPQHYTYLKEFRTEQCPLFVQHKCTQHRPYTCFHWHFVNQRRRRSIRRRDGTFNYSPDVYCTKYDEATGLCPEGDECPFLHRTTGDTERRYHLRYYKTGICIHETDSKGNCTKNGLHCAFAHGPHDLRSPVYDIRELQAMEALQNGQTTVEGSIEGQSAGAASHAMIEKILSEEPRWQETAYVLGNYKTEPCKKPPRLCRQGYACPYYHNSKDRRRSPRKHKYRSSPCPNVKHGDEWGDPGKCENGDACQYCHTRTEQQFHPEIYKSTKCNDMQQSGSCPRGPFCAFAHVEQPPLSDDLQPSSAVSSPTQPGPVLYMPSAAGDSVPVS
Method: RNA Bind-n-Seq
Form: RNA
Matrix: in vitro
Tested at: 100 nM
Notes: RNA with constant flanks, vertebrate orthologous sites, ends assumed
Baseline: input RNA pool
Reading: higher = stronger binding
Constant ends, left off below: GGGAGUUCUACAGUCCGACGAUC … CAACAGAGGAUUGAGCAUCA
Sequence | bound/input enrichment
CAGUGCCAUGGUGGAUGGAUCCGAGCUGAAGAAAAUCCGAUCCAAUUCACGCAUUUACCACCGCUACUUUCUCCUUGACGCGGACAUGCAGUCUUUAAGAUGGGAGCCCUCAAAGAAGGA | 0.385 ratio
UCAGAUCUAAGCCAACAGCAGUUCAAAAAUGCUAUUUAUUUGUGUCUGUAAGUUUGUACAUAGUAACAAUCUCAUAUUGUUGCAGAAUUUUUUUUCCAUGAGUUUGAGUUGUAUUUUUUU | 0.512 ratio
AGCUUCUGGUGACAUUUGGCCUGGCCUUUCAGCGUAUGAUAACAGUCCAAGGUCACCCCAUAGUCCUUCUAUUGCCACCCCACCUAGUCAGAGUUCAUCUUGCUCUGAUGCCCCUCUGCU | 0.656 ratio
GUUGGGCCAUGACCCCUAUAGAUUAGGUCAUGAUGCUUACAGGUUAGGACAGGACCCUUAUAGAUUAGGCCACGAUCCCUACAGACUAACUCCUGAUCCCUACAGGAUGUCACCUAGACC | 0.702 ratio
UGACCGUACAUACAAAAUGUGCUUUGAGUCAUAGGUGUGAAUGAAACCAUAGCUUGAAUAGAAUUCACUUUUAGAACUAUACAACAUAUAAGAACCCAUAAGCCAGAGGUCUGAGUUCUU | 0.703 ratio
CUGAAUUAGAGGGCAAUAUAUGUUUCAUAAAGAAGAGUCUUUAUAAUUUUGUUUGUCAGAUAGUAUUUUGGAAUUUGUAUAAUGAGGAUGUUUAGAAGCCAUAUAAGUGGCUUUUUUUAA | 0.427 ratio
UCCUGUGUAGAAAAUAAACUGGACUCCCCCUUCUGCUCCUCCCAGAAGCAAAAGACCAAAUAUAUUUCCUAUUCAUCAGAUUAUACUCUUCUGGUUUUGUUUUAUAUUAUUUUUACAUGC | 1.17 ratio
GUGACUUUGGUCGUCCGCACAGCUUCGGUGCAGAGGGUACUUAGCCCAGGCCUUGCGCGUACGCUCUUCUCCUACCCGGUUUUUAGGCCUCUGCCGCAACCAUGCUGCGCAUGAUUUUCA | 0.181 ratio
CGGCUGAUUCGCUCAUCGGGAGGGCCGCACACAUAGCUGUCCUCGAUUCGGAGAUAUUUUUAGAGAAGUUUUUCCUGGUUGCUGCCCUCAAAUAUUUCCAGUAGGACAGAAGCAUCAUUA | 0.412 ratio
UGCAUUAUUUGACCAGAGUGGAGGUGACAGAGUUUGAAGACAUCAAAUCAGGUUACAGAAUAGAUUUUUAUUUUGAUGAGAAUCCAUAUUUUGAAAAUAAAGUUCUCUCCAAAGAGUUUC | 0.667 ratio
AUCCUCAACUCGCUCUAGCCUGUGACCCUUCAAGACAGGGCCAGGAUUAGUGCGAGGUGCUAGGAAUUGCCGUCUCUCGCGCCAUUGAUCAGGGAGACAGACAUUAAAACAGGAAUGUCA | 0.209 ratio

Series 2
Target: RNA binding protein fox-1 homolog 2, RRM domain, GST-SBP tag (RBFOX2, Homo sapiens, UniProt O43251-10, residues 100-194)
Method: RNA Bind-n-Seq
Form: RNA
Matrix: in vitro
Tested at: 365 nM
Notes: natural RNA segment, single round, ends assumed
Baseline: no-protein control
Reading: higher = stronger binding
Constant ends, left off below: GGGAGUUCUACAGUCCGACGAUC … UGGAAUUCUCGGGUGCCAA
Residues (chain): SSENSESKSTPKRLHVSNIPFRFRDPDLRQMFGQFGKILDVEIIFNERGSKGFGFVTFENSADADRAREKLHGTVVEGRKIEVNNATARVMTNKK
Sequence | RBNS enrichment (R)
GUUUUUCAGGUACUGGGAGCCGGGGGCUCACUGCUUGCACUGUGCUUAGGGUAGGGAUGGUAAAUAUCCUCCCUGCAUGGCUUUAUCCUCCCUCUCAUCCCAAAGCAGGU | 1.63
AAGCACAUGCCUGUUUACGAUUAACACUAAAGUUUUAAUAUAUAAGUAUUUGAAGUCUGUUCAACUUAGUUUUACGCUAGUGUUCUGACAUAUUUUAAUUGCAUAUAACU | 0.567
AGUGCAGUCGAGUUGUCUGGCCAUCUGUAUUUGGAUCUAUAACUGUACUUUGCCUGGCGCUGUGCGCAAGGUCAGAAAACUUACUGCUAGUACCUAGAAACACACAAGGC | 1.05
UCUUCCCGAGCUGUUUUUCCGAGCAGUUUUGUUCGUGUCUCUUAAGGAAAUCACCAGCUUUGGCAUCUGACCAACAAACAGUGAGUGGGAGACGUGAUUUCCGAUGCGCA | 0.784
UCUGUGUUCUUUGUUACUUGGGUGCAAUAGCAACUUCCCUACCCCGUGCAUUCCAUCUUUCAUGUUGUGUAAAGUUCUUCACUUUUUUCUCUGAGGGCUGGGGGUUGGGG | 0.394
GAUAGGGUUUCUCUGUGUAACAAACAGCUCGGGCUAUUCUGGGAAUUGCUCUGUAGACCACGCUGGCUUCGAACUCACAGAGAUCUGUAUUGUCUCUGCCUCCUGAGUGC | 0.341
GCCAUUUUAAUGAGAUGAUUUUCUUCAUCUCAUAAUUAAAAUACCUGACUUUAGAGAGAGUAAAAUGUGCCAGGAGCCAUAGGAAUAUCUGUAUGUUGGAUGACUUUAAU | 0.529
UUUUGUACAGUGAACUGUGACUUUGUUGAUGUUUGCUUUAGCUAUAUUCAAGGCAGUGGUCUGUGGCUACAGGAAGCUGGUUCUACUGUCUGCUUAACAAACUGUCUUUG | 0.406
GUACGUGUAUAUAAUUAUACAUAUAUAUAUAUCUAUUUUGCCCAGGUCUGGGUUUCGUUUUUACCCAGACCCUGGCACUCCCUGUCCACUGUGUGUGUGAUCAUGCUGGG | 0.39
UUUCUUUUCAGUACAAGUAUUUGUAGUUUGUAAUGAAUGUGCCACAUACAGGUUUUGUAGCUUAUUAUUAUGGAACAGACUGAAGAUCUGCAGUACGAAUUUAAUACUUA | 0.399
UGGCGUCUUUGAAGCCUGGCCUCUUGGCUUCCUUUUGGACUUUGCUUGCUUUCAUUUGAAGUUUGGGUUUGCUUUCUGUGUUCUGUGCGUAUCUUGUUCAGUGUCGUCAA | 1.06
AGCUUGAGUUCUGUGCUCAGCCUCUGCAGGGGAUGUCAAACUCAGUAUGGGGUUUGUGCUAUGUGGAUGGAUAUGUAAGGAACUCCAGUUCCAGCUACAACUAAAUACAA | 0.743

Series 3
Target: Histone acetyltransferase KAT6A, winged helix 2, GST fusion (KAT6A, Homo sapiens, UniProt Q92794, residues 85-181)
Method: protein binding microarray
Form: double-stranded DNA, one strand shown
Matrix: in vitro
Tested at: not given
Notes: 8-mer, flanks averaged, mean of 2 arrays, mostly near background
Baseline: not given
Reading: higher = stronger binding
Construct (chain): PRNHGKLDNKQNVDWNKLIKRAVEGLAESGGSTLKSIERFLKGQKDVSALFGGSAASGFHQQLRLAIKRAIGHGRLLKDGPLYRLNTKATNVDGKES
Sequence | E-score
GAATAAGA | 0.0451
CAGAATCA | 0.0826
CGGAGTGA | 0.165
AGGTTATC | -0.154
CACGCGCG | 0.225
TCATTTAA | -0.0377
ATTAGTCC | -0.0359
GGAAGTCC | -0.106
AATGAAGC | 0.0562
ACTGTGTC | -0.0656
GTATCCTA | 0.00535
TGATTGCA | 0.01
GCGAAAAA | 0.171
CATATAAA | 0.0828
AAACAGGG | 0.0349
CAAAGGTG | -0.177
CAGGGGAG | -0.0373
AGGTAGTA | -0.146
CAACACGC | -0.157
AGCAAGCT | 0.00432
AGCACACA | -0.105
ATTGCCAG | -0.0217
CATCAACC | -0.0469
ACTGTGCA | -0.0579
GAGGTACA | -0.0789

Series 4
Target: TAR DNA-binding protein 43, full length, His tag (TARDBP, Homo sapiens, UniProt Q13148, residues 1-414)
Method: RNA Bind-n-Seq
Form: RNA
Matrix: in vitro
Tested at: 20 nM
Notes: 6-mer, flanks averaged, single round
Together with: 150 mM LiCl
Baseline: input library
Reading: higher = stronger binding
Sequence | 6-mer enrichment (R)
AGUAAC | 0.844
CUCAAU | 0.883
GGAGAG | 1.22
AUGACG | 0.882
UGUGCC | 1.19
CCCCAU | 1.19
AGGGCG | 1.09
GUUGAC | 0.981
GACUUU | 0.944
GAGCGC | 0.992
AGGCGC | 0.967
CAUCUU | 0.9
GCAUAG | 0.914
CCUCCA | 0.99
GCUUUU | 1.16
GGCUGU | 1.16
AAAGAC | 0.769
AAUCGG | 0.854
AGCGGU | 0.991
ACUUGU | 0.947

Series 5
Target: CCNF, cyclin fold, Cln2 fusion (human)
Method: yeast growth competition, sequencing
Matrix: yeast
Notes: strong parent motif
Baseline: not given
Reading: higher = stronger binding
Starting sequence: RBL1 docking peptide (human); GSAKRRLFGEDPP
Substitution | normalised enrichment score
S2V | 5.55
G9R | 7.88
D11M | 7.46
P12E | 8.15
R5C | 0.736
E10A | 6.44
P12T | 7.86
K4Q | 6.13
S2R | 7.47
R5F | -0.118
R5A | 0.567
P12M | 7.68
R5T | 0.887
F8S | -0.813
R6M | 3.84
D11S | 6.36
R6Q | 4.81
G1N | 8.01
P12L | 6.82
K4W | 2.18
D11G | 7.49
D11L | 6.85
P12R | 6.52
E10W | 6.68
S2F | 6.84

Some of these lines once more (series 3):
Sequence | E-score
AAACAGGG | 0.0349
CAGGGGAG | -0.0373
AGCAAGCT | 0.00432
AATGAAGC | 0.0562
ACTGTGCA | -0.0579
GAGGTACA | -0.0789
AGGTAGTA | -0.146
ACTGTGTC | -0.0656
ATTAGTCC | -0.0359
